Measured values collected from several papers.
Each numbered part is a random draw from the data of one study; scales do not carry over between parts.
Sequence of UniProt P21917 (whole entry, looked up): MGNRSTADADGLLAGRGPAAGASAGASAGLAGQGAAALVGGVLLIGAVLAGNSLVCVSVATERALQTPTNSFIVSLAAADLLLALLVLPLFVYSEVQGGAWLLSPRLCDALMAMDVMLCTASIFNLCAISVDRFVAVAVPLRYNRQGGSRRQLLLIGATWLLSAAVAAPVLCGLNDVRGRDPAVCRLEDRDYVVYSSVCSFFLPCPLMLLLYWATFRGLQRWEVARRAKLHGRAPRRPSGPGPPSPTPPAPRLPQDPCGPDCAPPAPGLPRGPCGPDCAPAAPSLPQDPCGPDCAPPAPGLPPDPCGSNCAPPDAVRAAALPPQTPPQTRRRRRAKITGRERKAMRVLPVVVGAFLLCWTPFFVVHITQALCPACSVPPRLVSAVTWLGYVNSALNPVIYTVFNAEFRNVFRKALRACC
Sequence of UniProt P47898 (whole entry, looked up): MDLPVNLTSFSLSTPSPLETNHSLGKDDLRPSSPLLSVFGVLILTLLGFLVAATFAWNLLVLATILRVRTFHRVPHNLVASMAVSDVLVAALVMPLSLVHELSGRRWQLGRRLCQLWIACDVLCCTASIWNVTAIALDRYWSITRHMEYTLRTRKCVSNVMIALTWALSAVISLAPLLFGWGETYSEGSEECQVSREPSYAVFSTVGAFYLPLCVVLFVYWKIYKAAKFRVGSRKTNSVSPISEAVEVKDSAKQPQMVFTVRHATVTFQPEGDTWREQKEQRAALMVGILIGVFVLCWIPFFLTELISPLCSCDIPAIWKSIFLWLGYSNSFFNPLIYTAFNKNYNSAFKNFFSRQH

Block 1
Target: Testis-specific serine/threonine-protein kinase 2 (TSSK2, Homo sapiens, UniProt Q96PF2)
Observed: enzyme activity
Action: inhibitor
Concentration: 0.5 µM
Reference: control
The remaining activity of Cc1nc(-c2ccccc2)c(-c2ccncc2)o1 is reported as 90.1%.
With O=C(Nc1cccc(Nc2cc(Nc3cccc(C(F)(F)F)c3)ncn2)c1)C1CC1 the remaining activity was 103%.
For Cn1c2ccccc2c2c3c(c4c5ccccc5n(CCC#N)c4c21)CNC3=O, the remaining activity was 74.3%.
For CO[C@H]1C[C@@H]2CC[C@@H](C)[C@@](O)(O2)C(=O)C(=O)N2CCCC[C@H]2C(=O)O[C@H]([C@H](C)C[C@@H]2CC[C@@H](O)[C@H](OC)C2)CC(=O)[C@H](C)/C=C(\C)[C@@H](O)[C@@H](OC)C(=O)[C@H](C)C[C@H](C)/C=C/C=C/C=C/1C, the remaining activity was 99.8%.
For C#Cc1cccc(Nc2ncnc3cc(OCCOC)c(OCCOC)cc23)c1, the remaining activity was 87.6%.
N#CC(C#N)=C(N)/C(C#N)=C/c1ccc(O)cc1 gave a remaining activity of 94.6%.
The remaining activity of CN(C)c1ccc(C=C2C(=O)Nc3ccccc32)cc1 is reported as 101%.
The remaining activity of CNC(=O)c1cc(Oc2ccc(NC(=O)Nc3ccc(Cl)c(C(F)(F)F)c3)cc2)ccn1 is reported as 102%.
Cc1cccc(-c2[nH]c(C(C)(C)C)nc2-c2ccc3c(c2)OCO3)n1 gave a remaining activity of 92.7%.
With NCCNc1ncc(C(N)=O)c(Nc2cccc(C(F)(F)F)c2)n1 the remaining activity was 79.2%.
COc1cc2nccc(Oc3ccc(NC(=S)NC(=O)c4ccccc4C)cc3)c2cc1OC has a remaining activity of 86.7%.

Block 2
Target: Hepatocyte nuclear factor 3-alpha (Foxa1, Mus musculus, UniProt P35582, residues 1-468, full length assumed)
Sequence of UniProt P35582 (whole entry, looked up): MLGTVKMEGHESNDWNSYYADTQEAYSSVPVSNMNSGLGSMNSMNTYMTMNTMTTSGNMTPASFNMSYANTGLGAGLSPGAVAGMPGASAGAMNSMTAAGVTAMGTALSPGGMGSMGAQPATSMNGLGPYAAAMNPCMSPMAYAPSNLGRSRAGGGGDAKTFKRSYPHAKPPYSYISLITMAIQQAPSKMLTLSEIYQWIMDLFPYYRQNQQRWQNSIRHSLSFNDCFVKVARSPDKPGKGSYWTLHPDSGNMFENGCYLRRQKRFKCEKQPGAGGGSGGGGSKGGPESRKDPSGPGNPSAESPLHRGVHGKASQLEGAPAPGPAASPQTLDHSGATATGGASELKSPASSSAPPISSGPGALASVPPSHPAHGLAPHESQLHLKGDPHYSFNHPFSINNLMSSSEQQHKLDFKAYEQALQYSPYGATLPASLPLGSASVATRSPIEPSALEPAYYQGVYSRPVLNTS
Method: EMSA with sequencing
Molecule type: double-stranded DNA, one strand shown
Medium: in vitro
Concentration: 10 and 20 nM
Setting: whole designed probe, mean of two concentrations, ends assumed
Reference: negative control set to 0
Reading: higher = stronger binding
Constant ends, left off below: GTGAGCGGTGCCCATTGATGGGGAAC … TTTCACTGGGATCGTGGGGAC
`CTAGCTCCAGTCTTAGCATGGCAACTTCTTCCTGCAACGTACTATTTTCATGCAAGAAGTCTTTTTCTTTCTTATAACTAAGAGAAAGCTAAGTAATCTAAGGGAACTTTTAGTTAGCACTCAATAGATTGACATATCATGATTTCTTCTGAAATTAAAAAATAACGTGTATTTGTATAATGAAAGAATCCAC` — result for “normalised bound fraction”: 0.127 ratio.
`TTTGTGCTCCTTGCTCCTACTCCCAAAGCCTCAAATCTGCTATGTGGCCTTTCCCAGTTGGCTTCTTTTATTTTCTTAACTTCTCCCTTGTAATGTAATCTTGGGAAAGAGAAAGTGGTAGAAGAACAAAGAATAAGCATACAAAGTAGCTCCACTCCTTCTGCATAGAGCTTTAATAAGGAAATGGTGCCAC` — result for “normalised bound fraction”: 0.0161 ratio.
For `GACAAACACATCTAGCTCCTAGCATGACTTCAGTGTGAAAAGGCTGGGCTTGGGAGAGCAGCAGGTAGACATGCCTATTAACATTGTGCTGCCAAGATTACTTTTTTTTAGATTACTTAAATCATGGACAGAAAGCCAAGTGTATAAGTGAAAACCCAAGGGACAATGACATGGGGTAGACTGCAGACCAAGA`, “normalised bound fraction” read -0.0276 ratio.
`ATCTTCCCCCTCTTCCTTGCCCCACCAGCTCACCTACGGGGGTTATTTGCAGATAGGAAAATAAATAAAGCCGGCATTCGTTAACGCAGTTCTGGCGCAAACTGCTGTTTGCTCTGGATGAATCATGGTCCTTTGGCGAGGCGTGGCTCCGGGAGAGCAAAGCACCGTGTCAGGGCCATGATCCGGGCTCGCC` — result for “normalised bound fraction”: 0.342 ratio.
`ATCTTCCCCCTCTTCCTTGCCCCACCAGCTCACCTACGGGGGTTATTTGCACAAAGGAAAATAAATAAAGCCGGCATTCGTTAACGCAGTTCACGCGCATACTGCTGTTTGCTCTGCATCTAACATGGTCCTTACGCGACGCCAGGCTCCGGGAGAGCAAAGCACCGTGTCAGGCGCATGATCCGGGCTCGCC`: “normalised bound fraction” 0.402 ratio.
`TCAGAGCTGTCAGCCTACTTGGCAGGCGACCTGACACTTTAGCTGAGTCACATTTAAAAACAATTTCCTAAGAAGGGAGTGGACTCCATGAGAGCAAACACCACCAGGCCACAGCTTAATTACTAAGTTGCCAACCTTTAGCTTTCCCCAGAGCCCCCTTATAAAACATTCAGATATCTACTGCCCAACAGTG` — result for “normalised bound fraction”: 0.0752 ratio.
For `ATGACTGACATAGATACATCTCTCAGAGTGAATAGGAAATCATTAACAACTATTTCATGAGTGAAGTTTCAATATATTTTTTAAAATTCAGAGTAAACATCAAGATGGACTTTATTTTACCTAACACAACAATTCGGTCACCCTGTCATCCTAAAAATCTCTATAAGTAAAACTGATTGTAAGGATATGTTAA`, “normalised bound fraction” read 0.176 ratio.
`ATCTCTGGGTTCTTCCCTCTGAGAATCTCCCCCACCTCAGTTAAACTGCGCATCATAACTGCATGGCTATTTGAGATATTATTTTTAAATAACATGTTTACTTTGTGAAAGCTCTTAGTTAGGGAAACCAGAGGTCAGCATTGCAGTTTGTTTACAGATCTGTGAAATGGCTTTGCCCTGCTACCCCCTTATT`: “normalised bound fraction” 0.484 ratio.

Block 3
Target: Histone acetyltransferase KAT6A, both winged helices, GST fusion (KAT6A, Homo sapiens, UniProt Q92794, residues 1-181)
Method: protein binding microarray
Molecule type: double-stranded DNA, one strand shown
Medium: in vitro
Concentration: not given
Setting: 8-mer, flanks averaged, mean of 2 arrays, mostly near background
Reference: not given
Reading: higher = stronger binding
Target sequence (chain): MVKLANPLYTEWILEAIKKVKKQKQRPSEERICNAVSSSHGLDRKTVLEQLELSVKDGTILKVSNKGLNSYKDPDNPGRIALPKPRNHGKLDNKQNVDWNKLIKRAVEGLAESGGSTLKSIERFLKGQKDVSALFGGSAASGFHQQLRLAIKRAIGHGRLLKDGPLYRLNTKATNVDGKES
`AGCTCCTC` has an E-score of -0.245.
With `AGCATCTG` the E-score was -0.181.
With `AACCACAA` the E-score was 0.0517.
For `ATCCTGCG`, the E-score was 0.0722.
`CTGAGCTC` gave an E-score of 0.0107.
For `AAACTCCG`, the E-score was 0.107.
`CTCAATGA` has an E-score of -0.19.
The E-score of `TACATCGA` is reported as -0.1.

Further values, each from its own experiment
Concentration: 10 µM
The inhibition of CCS(=O)(=O)c1cc2cc(C[C@](O)(CC(C)(C)c3ccc(F)cc3C(N)=O)C(F)(F)F)[nH]c2cn1 is reported as 12.2% (5-hydroxytryptamine receptor 5A (HTR5A, Homo sapiens, UniProt P47898); cell-free assay).
For N#CN1CC[C@@H](C(=O)Nc2nc3c(s2)CN(C(=O)CN=[N+]=[N-])CC3)C1, the inhibition was 5.53% (D(4) dopamine receptor (DRD4, Homo sapiens, UniProt P21917); binding, radioligand binding).

Repeated from above (block 2):
`ATCTTCCCCCTCTTCCTTGCCCCACCAGCTCACCTACGGGGGTTATTTGCACAAAGGAAAATAAATAAAGCCGGCATTCGTTAACGCAGTTCACGCGCATACTGCTGTTTGCTCTGCATCTAACATGGTCCTTACGCGACGCCAGGCTCCGGGAGAGCAAAGCACCGTGTCAGGCGCATGATCCGGGCTCGCC`: “normalised bound fraction” 0.402 ratio.
For `ATGACTGACATAGATACATCTCTCAGAGTGAATAGGAAATCATTAACAACTATTTCATGAGTGAAGTTTCAATATATTTTTTAAAATTCAGAGTAAACATCAAGATGGACTTTATTTTACCTAACACAACAATTCGGTCACCCTGTCATCCTAAAAATCTCTATAAGTAAAACTGATTGTAAGGATATGTTAA`, “normalised bound fraction” read 0.176 ratio.
`TTTGTGCTCCTTGCTCCTACTCCCAAAGCCTCAAATCTGCTATGTGGCCTTTCCCAGTTGGCTTCTTTTATTTTCTTAACTTCTCCCTTGTAATGTAATCTTGGGAAAGAGAAAGTGGTAGAAGAACAAAGAATAAGCATACAAAGTAGCTCCACTCCTTCTGCATAGAGCTTTAATAAGGAAATGGTGCCAC` — result for “normalised bound fraction”: 0.0161 ratio.
`ATCTTCCCCCTCTTCCTTGCCCCACCAGCTCACCTACGGGGGTTATTTGCAGATAGGAAAATAAATAAAGCCGGCATTCGTTAACGCAGTTCTGGCGCAAACTGCTGTTTGCTCTGGATGAATCATGGTCCTTTGGCGAGGCGTGGCTCCGGGAGAGCAAAGCACCGTGTCAGGGCCATGATCCGGGCTCGCC` — result for “normalised bound fraction”: 0.342 ratio.
